Results collected from several papers.
Each numbered part is a random draw from the data of one study; scales do not carry over between parts.

Block 1
Target: ATP-dependent RNA helicase DDX3X, helicase core (DDX3X, Homo sapiens, UniProt O00571, residues 132-607)
Sequence of UniProt O00571 (132-607, looked up): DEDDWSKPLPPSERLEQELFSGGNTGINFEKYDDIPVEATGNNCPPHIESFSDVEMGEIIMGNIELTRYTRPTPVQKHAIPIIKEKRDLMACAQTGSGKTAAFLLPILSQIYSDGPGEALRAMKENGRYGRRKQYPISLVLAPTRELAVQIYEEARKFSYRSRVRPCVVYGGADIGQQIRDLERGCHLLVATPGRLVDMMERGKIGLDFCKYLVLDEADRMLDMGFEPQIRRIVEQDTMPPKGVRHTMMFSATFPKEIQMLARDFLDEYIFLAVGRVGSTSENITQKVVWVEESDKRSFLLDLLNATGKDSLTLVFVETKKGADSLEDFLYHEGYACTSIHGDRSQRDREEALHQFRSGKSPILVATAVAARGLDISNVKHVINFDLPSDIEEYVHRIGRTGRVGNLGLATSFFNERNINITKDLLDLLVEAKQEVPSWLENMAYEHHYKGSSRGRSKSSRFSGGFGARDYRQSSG
Technique: RNA Bind-n-Seq
Molecule type: RNA
Medium: in vitro
Tested at: not given
Notes: 4-mer, random 30-nt RNA, single round
Added: RocA, ADP, phosphate
Baseline: input library
Direction: higher = stronger binding
Oligonucleotide	4-mer enrichment [fold]
UAGG	1.32
CAAU	0.735
CUCU	0.622
GAAC	0.949
UAGC	0.804
AUUC	0.717
CAUU	0.716
UGGU	1.1
UAUA	0.942
UACG	0.791
ACGU	0.753
UCCU	0.762
CCCG	0.867
AGAA	1.48
CUUA	0.714
UGGC	0.828
ACCC	0.836
UUAA	0.972
AGUG	1.41
UAAG	1.12

Block 2
Target: RNA binding protein fox-1 homolog 2, RRM domain, GST-SBP tag (RBFOX2, Homo sapiens, UniProt O43251-10, residues 100-194)
Technique: RNA Bind-n-Seq
Molecule type: RNA
Medium: in vitro
Tested at: 365 nM
Notes: natural RNA segment, single round, ends assumed
Baseline: no-protein control
Direction: higher = stronger binding
Constant ends, left off below: GGGAGUUCUACAGUCCGACGAUC … UGGAAUUCUCGGGUGCCAA
Residues (chain): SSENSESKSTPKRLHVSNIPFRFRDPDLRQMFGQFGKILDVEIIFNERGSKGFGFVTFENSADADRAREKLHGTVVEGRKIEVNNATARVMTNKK
Oligonucleotide	RBNS enrichment (R)
UGGGGGGUGGGGAACCUCCUUCCACCUGCGCUUCCUUGAGGGGACCAGAGAGCCCUUGGUCCCAGGUCUCUUGAGCUUUUGUGUCAUGUUGCAGCAGAGUGAAGAUGGGG	0.587
ACCACCCCCAGUCUCAAUCCUGUGCCGACAAAGGAAGUGGACGAAUUAGUGAUGAUGGUGGGCGUGAUGGAAAGAAAGAGGUGAGUGGAGACUCAGCCUGGCUAUUCUUG	0.454
CCCCCUCUCAUCCCGGAAGAAGAGGAAGAAGCAGAACAGACUAGUUUUGAGUAAACUCAGUAUGCAUGUGUGAAUGCUGAAUCACAGGAAUGGUGUUGAGGCUACCAAGA	15.5
UUGUCUGGGCUCAUCACCUCUCCCUAUCCCAGACUAACUUUACUGUGAAAUCCUACCACAUUCCAUGUCUGAAUUUUUGGAUUCGGGGUGGAUUUUCGUUGUCCGUGGAA	0.343
ACUAGACAAAAUAAGUUUUAACAACUUCUCUACAUAUCUGUAAAGAAAAGUAUUUUCUGUUAAUUUUUUUAAUUUUUGGCCAAAUUAUUUUCUCUUUGUCAUUAAAGUCA	0.777
ACUGACAUCAGUGUCCAAUAUAUGGUAUAUUUUUAUAAUAUAAUAUCCUAGUAUGAUUGGUUAUAUCAAGAAUUGACAAGUGCAGAUAAAGACCUUUCCCAUAGGAGUUC	0.626
GACCAGGAGGUUGGUAAGAGUGACUAACCAGCCUAACUUUAAUACACAUGUAUAAAGAUGUUCACAGAGAAAGAUGCUCUGUAGAGAAUUUGCUACCGAAGUUGGCUCAA	0.416
CCUUGUUCUGAGCCCUGACAUGUGCUUGGGCACUGGUGGGCCUGGGCUUCUGAGGUGGCCUCCUGCCCUGAUCAGGGACCCUCCCCGCUUUCCUGGGCCUCUCAGUUGAA	0.369

Block 3
Target: Histone acetyltransferase KAT6A, winged helix 2, GST fusion (KAT6A, Homo sapiens, UniProt Q92794, residues 85-181)
Technique: protein binding microarray
Molecule type: double-stranded DNA, one strand shown
Medium: in vitro
Tested at: not given
Notes: 8-mer, flanks averaged, mean of 2 arrays, mostly near background
Baseline: not given
Direction: higher = stronger binding
Residues (chain): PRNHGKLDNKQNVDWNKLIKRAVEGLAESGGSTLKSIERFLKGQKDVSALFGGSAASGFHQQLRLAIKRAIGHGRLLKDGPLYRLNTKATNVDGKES
Oligonucleotide	E-score
TGCGTCCA	0.156
AGCTCTTC	0.14
CTAAAAGA	-0.065
AGTCGGTA	-0.0183
CTACAGAG	0.044
GTATCGAC	0.102
CGCTTGTC	0.07
CGCCTAAG	0.0229
AGCCAACA	-0.023
CGGAATGC	0.0637
TCCTCTAA	-0.155
ATGGAAGC	0.0777
AACCAGTC	-0.0659
CGGGAGCC	0.0641
ATTATCTA	0.146
ACCGCCCA	0.1
CACTCGTC	-0.19

Block 4
Target: Centromere-binding protein 1, full length, His-tagged (CBF1, Saccharomyces cerevisiae, UniProt P17106, residues 1-351)
Sequence of UniProt P17106 (whole entry, looked up): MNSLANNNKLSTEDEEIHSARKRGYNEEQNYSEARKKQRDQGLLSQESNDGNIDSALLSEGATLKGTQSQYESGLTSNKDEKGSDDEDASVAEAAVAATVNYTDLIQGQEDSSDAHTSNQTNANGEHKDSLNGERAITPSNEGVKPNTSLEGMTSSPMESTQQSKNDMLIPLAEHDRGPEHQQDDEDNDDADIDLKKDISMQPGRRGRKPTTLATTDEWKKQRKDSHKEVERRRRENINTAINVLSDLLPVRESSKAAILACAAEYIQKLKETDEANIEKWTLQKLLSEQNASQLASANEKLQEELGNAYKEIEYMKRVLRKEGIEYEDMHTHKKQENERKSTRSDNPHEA
Technique: competition protein-binding microarray
Molecule type: double-stranded DNA, one strand shown
Medium: in vitro
Tested at: 2 µM
Notes: whole 60-bp probe, lowest competitor level
Added: Pho4 competitor, 0.05 µM
Direction: higher = stronger binding
Constant ends, left off below: … GTCTTGATTCGCTTGACGCTGCTG
Oligonucleotide	fluorescence intensity
GACCTTGAATGCTAGAACGTGGAACATGAATTCCAG	107 a.u.
GACCATATCTTTGTACGCATTGTTTCCATTCAAAGA	90.2 a.u.
GAGCGATGCCAGCATCACATGCAGGTTTTCAAGTAT	345 a.u.
CTTTCCCGATCTTGGCAAGTGGGTGTAGCACATTTG	59.9 a.u.
AAATTACTAAGTTGGACTGTGGGTGACGCCGTATGA	71.7 a.u.
AAAGCGGTAATTTGCGACGTGGGTGCAGATATCTAT	84.5 a.u.
TTTCGATAATGTTAAGGAGTTTGAATTAACTACCAG	84.5 a.u.
TGCGCAACAACTTGGCCGGTGGGTGTATGTCTAGAA	70.2 a.u.
TGGCGCTGGGGTCCTCACGGGCGCTTTGTTCAAGTC	63.3 a.u.
CACATTATCAAACGTCACCTGCGTATTATCAACCGG	237 a.u.
AAGTCGTTAGGGCCAATCGTGGGACGTATGCTATTG	65.3 a.u.
ATAACCATAGGAAAGCACGTGATGGTGGAAGGACAG	3720 a.u.
CGTCCTAGCGATTGAGAAGTGGGTGCCATGAGGAAG	57 a.u.
CTATCCACCAATATGCTCGTGGGTAACATCTAGAGA	74.9 a.u.
TAGTGGAAGGATGTACTCGTGATGGGGTTATGGTAG	276 a.u.
CATACCCAACCTTTTCACGTGGAGTAAGATATTTGT	573 a.u.
TTTCTGGTGTCTATGAAGGTGTCTCAACAATCGAAC	79.3 a.u.
CTTTCCCGATCTTGCGCAGTGGGTGTAGCACATTTG	73.7 a.u.
AATGCTTGAAAAATTCTCGTGCAAACGGTCCCCTAC	94.4 a.u.

Block 5
Target: Sal-like protein 4, full length isoform B (SALL4, Homo sapiens, UniProt Q9UJQ4-2, residues 1-616)
Technique: universal PBM
Molecule type: double-stranded DNA, one strand shown
Medium: in vitro
Tested at: not given
Notes: 8-mer, flanks averaged, mean of replicates
Direction: higher = stronger binding
Oligonucleotide	E-score
AGAAGTAT	0.226
TACACCTA	0.182
GAAGAGCC	-0.239
ATACGTCC	0.122
AACTATCT	0.153
ATCGGTTG	0.0054
AGTGAGTG	-0.103
GGAACCAA	-0.18
CCACTCAC	-0.0954
ACAGGTAT	0.123
ACATAAGG	0.214
GGCACACA	-0.134
CAAAATCG	0.082
AAGGCTAC	-0.0543
CGTTTGCC	-0.165
CAACTGGG	-0.327
AAGTATGG	0.103

For quick reference, copied from above (block 5):
Oligonucleotide	E-score
AACTATCT	0.153
ATCGGTTG	0.0054
AGTGAGTG	-0.103
GGAACCAA	-0.18
CCACTCAC	-0.0954
ACAGGTAT	0.123
ACATAAGG	0.214
